Results of several laboratories.
Each numbered part is a random draw from the data of one study; scales do not carry over between parts.
Chain of UniProt Q8IU85 (whole entry, looked up): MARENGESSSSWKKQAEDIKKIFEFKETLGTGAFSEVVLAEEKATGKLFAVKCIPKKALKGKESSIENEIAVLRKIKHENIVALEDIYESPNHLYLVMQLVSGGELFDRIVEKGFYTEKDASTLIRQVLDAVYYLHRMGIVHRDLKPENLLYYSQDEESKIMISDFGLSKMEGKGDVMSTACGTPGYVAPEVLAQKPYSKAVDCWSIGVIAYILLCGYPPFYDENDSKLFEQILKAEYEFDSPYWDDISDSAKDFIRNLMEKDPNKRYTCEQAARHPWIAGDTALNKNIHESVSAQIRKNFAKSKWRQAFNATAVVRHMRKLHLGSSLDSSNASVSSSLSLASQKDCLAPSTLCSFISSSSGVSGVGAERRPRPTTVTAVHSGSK
Chain of UniProt Q6DT37 (whole entry, looked up): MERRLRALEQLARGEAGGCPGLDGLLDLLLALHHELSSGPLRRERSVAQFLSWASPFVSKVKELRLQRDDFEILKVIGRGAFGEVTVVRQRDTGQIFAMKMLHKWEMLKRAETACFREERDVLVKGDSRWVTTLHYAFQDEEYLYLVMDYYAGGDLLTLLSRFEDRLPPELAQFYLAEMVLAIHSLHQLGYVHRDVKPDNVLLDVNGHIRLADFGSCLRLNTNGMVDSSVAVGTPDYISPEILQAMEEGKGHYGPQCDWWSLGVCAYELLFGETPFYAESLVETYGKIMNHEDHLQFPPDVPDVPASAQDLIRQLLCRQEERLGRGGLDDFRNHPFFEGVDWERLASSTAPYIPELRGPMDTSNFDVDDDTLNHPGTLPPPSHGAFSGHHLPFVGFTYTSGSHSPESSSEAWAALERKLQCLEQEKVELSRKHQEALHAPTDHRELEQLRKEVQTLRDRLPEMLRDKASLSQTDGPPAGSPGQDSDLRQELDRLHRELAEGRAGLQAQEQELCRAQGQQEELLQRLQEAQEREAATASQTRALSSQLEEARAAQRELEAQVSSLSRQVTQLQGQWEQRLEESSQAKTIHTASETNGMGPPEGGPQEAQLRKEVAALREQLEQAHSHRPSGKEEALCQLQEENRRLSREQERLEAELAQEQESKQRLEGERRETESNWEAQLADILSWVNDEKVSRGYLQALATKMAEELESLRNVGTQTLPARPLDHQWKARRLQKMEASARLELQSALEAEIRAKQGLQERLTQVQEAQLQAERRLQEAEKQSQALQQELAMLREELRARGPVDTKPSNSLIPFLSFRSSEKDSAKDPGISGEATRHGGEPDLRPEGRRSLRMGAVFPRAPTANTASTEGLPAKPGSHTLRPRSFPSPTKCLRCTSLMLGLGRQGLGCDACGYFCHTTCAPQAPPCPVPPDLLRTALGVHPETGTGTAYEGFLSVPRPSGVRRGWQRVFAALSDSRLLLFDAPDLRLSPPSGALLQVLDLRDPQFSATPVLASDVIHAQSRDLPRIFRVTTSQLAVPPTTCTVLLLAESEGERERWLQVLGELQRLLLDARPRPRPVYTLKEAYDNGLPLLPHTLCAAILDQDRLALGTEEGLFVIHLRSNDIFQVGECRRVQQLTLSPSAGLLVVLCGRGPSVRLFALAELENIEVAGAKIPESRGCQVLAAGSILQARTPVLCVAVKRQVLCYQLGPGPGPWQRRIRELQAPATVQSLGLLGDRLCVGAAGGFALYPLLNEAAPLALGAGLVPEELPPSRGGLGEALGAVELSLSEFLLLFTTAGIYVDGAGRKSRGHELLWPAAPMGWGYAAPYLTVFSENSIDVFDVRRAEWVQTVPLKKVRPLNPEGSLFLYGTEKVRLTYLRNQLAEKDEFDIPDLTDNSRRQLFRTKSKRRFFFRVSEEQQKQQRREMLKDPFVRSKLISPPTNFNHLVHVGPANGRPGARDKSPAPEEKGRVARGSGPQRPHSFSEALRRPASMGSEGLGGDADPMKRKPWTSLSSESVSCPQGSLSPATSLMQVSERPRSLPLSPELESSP
Chain of UniProt Q8NFD2 (whole entry, looked up): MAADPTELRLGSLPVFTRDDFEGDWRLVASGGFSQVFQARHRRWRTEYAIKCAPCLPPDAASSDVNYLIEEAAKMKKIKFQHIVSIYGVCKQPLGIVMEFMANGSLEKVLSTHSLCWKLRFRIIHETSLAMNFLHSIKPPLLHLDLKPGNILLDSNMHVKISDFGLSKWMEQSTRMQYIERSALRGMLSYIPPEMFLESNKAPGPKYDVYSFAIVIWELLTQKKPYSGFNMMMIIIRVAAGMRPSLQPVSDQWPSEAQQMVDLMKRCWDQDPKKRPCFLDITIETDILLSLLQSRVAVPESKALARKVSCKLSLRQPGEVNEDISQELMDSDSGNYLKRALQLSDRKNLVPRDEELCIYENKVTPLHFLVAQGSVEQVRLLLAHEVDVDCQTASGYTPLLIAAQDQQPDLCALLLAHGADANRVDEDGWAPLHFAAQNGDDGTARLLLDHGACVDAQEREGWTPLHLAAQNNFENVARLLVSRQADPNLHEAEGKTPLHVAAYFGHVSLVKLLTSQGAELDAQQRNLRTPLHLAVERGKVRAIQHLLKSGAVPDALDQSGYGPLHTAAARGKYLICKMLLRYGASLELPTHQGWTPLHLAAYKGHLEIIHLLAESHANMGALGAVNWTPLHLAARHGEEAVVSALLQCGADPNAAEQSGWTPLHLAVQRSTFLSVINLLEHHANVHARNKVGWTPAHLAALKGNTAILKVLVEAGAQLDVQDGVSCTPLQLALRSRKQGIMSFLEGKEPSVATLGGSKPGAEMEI
Chain of UniProt O75385 (whole entry, looked up): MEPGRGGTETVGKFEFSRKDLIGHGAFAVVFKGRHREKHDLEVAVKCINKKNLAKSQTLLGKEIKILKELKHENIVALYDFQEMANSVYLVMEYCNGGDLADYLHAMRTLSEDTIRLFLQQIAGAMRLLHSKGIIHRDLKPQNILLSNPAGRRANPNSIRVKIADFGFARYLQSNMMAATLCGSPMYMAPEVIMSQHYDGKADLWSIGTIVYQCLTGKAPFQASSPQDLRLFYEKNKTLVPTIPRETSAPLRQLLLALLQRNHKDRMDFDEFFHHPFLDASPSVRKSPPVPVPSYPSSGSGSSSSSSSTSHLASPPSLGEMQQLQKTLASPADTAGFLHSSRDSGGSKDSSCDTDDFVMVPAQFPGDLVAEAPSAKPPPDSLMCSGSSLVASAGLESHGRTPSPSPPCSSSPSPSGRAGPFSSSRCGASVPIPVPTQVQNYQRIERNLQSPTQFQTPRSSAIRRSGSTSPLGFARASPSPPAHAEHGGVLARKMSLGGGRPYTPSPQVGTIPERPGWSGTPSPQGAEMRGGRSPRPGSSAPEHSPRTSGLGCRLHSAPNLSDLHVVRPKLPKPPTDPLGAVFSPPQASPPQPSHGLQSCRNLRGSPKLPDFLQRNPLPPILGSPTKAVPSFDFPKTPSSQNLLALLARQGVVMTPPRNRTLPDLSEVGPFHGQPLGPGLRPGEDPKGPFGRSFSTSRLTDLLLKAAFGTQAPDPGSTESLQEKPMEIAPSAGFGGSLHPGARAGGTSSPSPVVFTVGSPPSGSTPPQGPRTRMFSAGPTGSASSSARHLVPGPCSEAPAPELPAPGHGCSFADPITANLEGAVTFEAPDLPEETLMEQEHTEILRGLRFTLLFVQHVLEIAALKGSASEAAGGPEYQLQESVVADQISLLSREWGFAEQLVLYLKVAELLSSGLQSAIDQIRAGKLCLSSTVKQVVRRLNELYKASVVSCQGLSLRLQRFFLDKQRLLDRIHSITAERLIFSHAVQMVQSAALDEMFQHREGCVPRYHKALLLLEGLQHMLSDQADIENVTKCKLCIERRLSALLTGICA
Chain of UniProt Q13976 (whole entry, looked up): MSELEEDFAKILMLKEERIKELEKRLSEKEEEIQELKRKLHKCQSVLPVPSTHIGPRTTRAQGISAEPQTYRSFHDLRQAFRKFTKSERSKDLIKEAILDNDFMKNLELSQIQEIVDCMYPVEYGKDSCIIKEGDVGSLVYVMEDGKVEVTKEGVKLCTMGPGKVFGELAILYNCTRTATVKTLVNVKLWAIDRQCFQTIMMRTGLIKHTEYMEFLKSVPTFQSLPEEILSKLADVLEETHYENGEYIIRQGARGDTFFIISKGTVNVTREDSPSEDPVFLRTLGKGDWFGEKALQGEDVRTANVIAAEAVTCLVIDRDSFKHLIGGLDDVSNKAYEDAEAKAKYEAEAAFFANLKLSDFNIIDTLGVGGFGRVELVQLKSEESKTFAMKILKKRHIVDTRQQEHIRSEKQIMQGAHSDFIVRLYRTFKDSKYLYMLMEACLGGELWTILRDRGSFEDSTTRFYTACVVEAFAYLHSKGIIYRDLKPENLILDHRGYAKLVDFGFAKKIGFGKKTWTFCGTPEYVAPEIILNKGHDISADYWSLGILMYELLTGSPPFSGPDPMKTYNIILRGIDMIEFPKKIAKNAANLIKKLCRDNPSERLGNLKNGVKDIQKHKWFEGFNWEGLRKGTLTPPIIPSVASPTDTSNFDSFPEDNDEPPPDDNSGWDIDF

Block 1
Species: mouse
Medium: microsomes or S9
Concentration: 2 µM
Time: 0.5 h
Measurement: remaining compound
Cc1ccc2c(c1)C(NC(=O)c1ccc(CS(=O)(=O)c3ccc(Br)cc3)o1)CC1(CCCCC1)O2 (stereo not drawn): 10%
CC(C)(C)c1cc(NC(=O)Cn2nnn(-c3ccccc3)c2=O)on1: 4.41%
COC(=O)/C(=C(/F)OCC(=O)N(C)c1ccc(F)cc1)c1ccc(OC)cc1: 3.79%
COc1cc(OC)c2c(=O)cc(-c3ccccc3)oc2c1: 0.00593%
COCCCNC(=O)c1nc(CC(=O)Nc2ccc3cc[nH]c3c2)no1: 67.9%
CC(C)(C)C(=O)c1sc2c(c1N)c(=O)[nH]c(=O)n2C1CCCCC1: 41.8%
O=C1CSC(Nc2cccc(C(F)(F)F)c2)=N1: 39.5%
CC(C)C(NCc1cc(=O)n(C)c(=O)n1C)c1ccc(C2CCCCC2)cc1 (stereo not drawn): 0.431%
COc1cc(=O)n(C)cc1C(=O)NCc1csc2ncnn12: 87.9%
COc1cc(=O)n(-c2ccc(F)cc2)nc1C(=O)Nc1ccc(-c2nc3ccc(C)cc3s2)cc1: 49.6%

Block 2
Compound: Cc1sc(C(=O)NC2COC2)cc1-n1cc(NC(=O)Nc2c(F)cccc2Cl)cn1
Concentration: 10 µM
Measurement: remaining activity
Serine/threonine-protein kinase ULK1 (ULK1, Homo sapiens, UniProt O75385); enzyme activity; baseline: untreated control: 70.8%
Serine/threonine-protein kinase PAK 1 (PAK1, Homo sapiens, UniProt Q13153); enzyme activity; baseline: untreated control: 98.2%
Platelet-derived growth factor receptor beta (PDGFRB, Homo sapiens, UniProt P09619); enzyme activity; baseline: untreated control: 88.3%
Cytoplasmic tyrosine-protein kinase BMX (BMX, Homo sapiens, UniProt P51813); enzyme activity; baseline: untreated control: 91.9%
cGMP-dependent protein kinase 1, isoform beta (PRKG1, Homo sapiens, UniProt Q13976); kinase activity, kinase panel profiling: 84.7%

Block 3
Cell line: mouse MPNST tumor cells
Method: high-content nuclear imaging
Measured: cell number
Concentration: 10 µM
Time: 12 h
Setting: mean of 2 replicates
Baseline: plate mean
Direction: higher = more cells
Measurement: nuclei count
CC(C)S(=O)(=O)N[C@H]1Cc2ccc(-c3ccc(F)nc3)cc2C1: 0.216 z-score
CCCN1CCC[C@@H](c2cccc(S(C)(=O)=O)c2)C1: 0.878 z-score
Clc1cc2cc(c1)-c1cnn3ccc(nc13)NCCOCCO2: 1.78 z-score
CCCCOc1ccc(CC(=O)NO)cc1: 0.601 z-score
c1ccc(CNc2ncnc3nc[nH]c23)cc1: -0.2 z-score
CNc1nnc(SCc2ccccc2)s1: 1.02 z-score
COc1nccnc1NS(=O)(=O)c1cccc(Cl)c1Cl: 0.357 z-score
CO[C@H]1C[C@@H]2CC[C@@H](C)[C@@](O)(O2)C(=O)C(=O)N2CCCC[C@H]2C(=O)O[C@H]([C@H](C)C[C@@H]2CC[C@@H](OCCO)[C@H](OC)C2)CC(=O)[C@H](C)/C=C(\C)[C@@H](O)[C@@H](OC)C(=O)[C@H](C)C[C@H](C)/C=C/C=C/C=C/1C: 3.73 z-score
Cc1cc(-c2nc(C(=O)Nc3cn(C4CCOCC4)nc3C(N)=O)co2)ccn1: 5.81 z-score
C#C[C@]1(O)CC[C@H]2[C@@H]3CCC4=C(CCC(=O)C4)[C@H]3CC[C@@]21C: 2.73 z-score

Block 4
Target: Beta-1 adrenergic receptor (ADRB1, Homo sapiens, UniProt P08588)
Chain of UniProt P08588 (whole entry, looked up): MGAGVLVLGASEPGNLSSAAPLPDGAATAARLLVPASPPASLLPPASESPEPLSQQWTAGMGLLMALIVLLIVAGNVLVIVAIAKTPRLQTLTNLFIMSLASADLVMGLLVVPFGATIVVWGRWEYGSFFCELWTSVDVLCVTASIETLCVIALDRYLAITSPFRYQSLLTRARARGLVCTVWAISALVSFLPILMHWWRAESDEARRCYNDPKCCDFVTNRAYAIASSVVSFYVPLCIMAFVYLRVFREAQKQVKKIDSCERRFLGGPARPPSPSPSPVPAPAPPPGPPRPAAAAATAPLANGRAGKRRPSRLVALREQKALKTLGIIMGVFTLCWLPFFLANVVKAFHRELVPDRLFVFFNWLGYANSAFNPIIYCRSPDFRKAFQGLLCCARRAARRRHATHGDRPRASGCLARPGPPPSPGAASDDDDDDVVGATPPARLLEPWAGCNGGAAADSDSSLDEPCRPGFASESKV
Mode: antagonist
Measurement: IC50
O=c1c2nc(-c3cccc(C(F)(F)F)c3)ccc2ncn1Cc1ccccn1: ≥ 100 µM
CN(c1ccccc1)c1cc(=O)c2ccnc(NCC3CCOCC3)c2o1: ≥ 100 µM
COc1ccccc1N1CCN(C(=O)C[C@@H]2O[C@H](CNC(=O)NC(C)C)[C@@H](O)[C@H]2O)CC1: 7.08 µM
O=C1COc2ccc(-c3ccccc3)nc2CN1: ≥ 100 µM
Cc1noc(C)c1-c1cc2cc(CNC3CCOCC3)oc2c(NC2CCN(C)CC2)n1: ≥ 100 µM
O=C1CCCC2=C1C(c1ccc(O)cc1)Nc1ccc(C(=O)c3ccccc3)cc1N2 (stereo not drawn): ≥ 100 µM

Block 5
Compound: CCCCN(CCCC)C(=O)CN1C[C@@H](c2cc(OC)c3c(c2)OCO3)[C@H](C(=O)O)[C@H]1CC(C)(C)CCC
Concentration: 1 µM
Measurement: remaining binding
Mitogen-activated protein kinase kinase kinase 11 (MAP3K11, Homo sapiens, UniProt Q16584); cell-free assay, competition with immobilised ligand: 100%
Calcium/calmodulin-dependent protein kinase type 1D (CAMK1D, Homo sapiens, UniProt Q8IU85); cell-free assay, competition with immobilised ligand: 94.4%
LIM domain kinase 2 (LIMK2, Homo sapiens, UniProt P53671); cell-free assay, competition with immobilised ligand: 86.8%
Tyrosine-protein kinase Fer (FER, Homo sapiens, UniProt P16591); cell-free assay, competition with immobilised ligand: 100%
Receptor-type tyrosine-protein kinase FLT3 (FLT3, Homo sapiens, UniProt P36888, N841I); cell-free assay, competition with immobilised ligand: 96.1%
MAP kinase-activated protein kinase 2 (MAPKAPK2, Homo sapiens, UniProt P49137); cell-free assay, competition with immobilised ligand: 84.2%
Casein kinase I isoform alpha (CSNK1A1, Homo sapiens, UniProt P48729); cell-free assay, competition with immobilised ligand: 99.1%
Mitotic checkpoint serine/threonine-protein kinase BUB1 (BUB1, Homo sapiens, UniProt O43683); cell-free assay, competition with immobilised ligand: 94.9%
Mitogen-activated protein kinase kinase kinase 6 (MAP3K6, Homo sapiens, UniProt O95382); cell-free assay, competition with immobilised ligand: 100%
Serine/threonine-protein kinase MRCK gamma (CDC42BPG, Homo sapiens, UniProt Q6DT37); competition binding: 94.4%
Glycogen synthase kinase-3 beta (GSK3B, Homo sapiens, UniProt P49841); cell-free assay, competition with immobilised ligand: 100%
Fibroblast growth factor receptor 3 (FGFR3, Homo sapiens, UniProt P22607, G697C); cell-free assay, competition with immobilised ligand: 94%
Serine/threonine-protein kinase pim-3 (PIM3, Homo sapiens, UniProt Q86V86); cell-free assay, competition with immobilised ligand: 81.5%
Ankyrin repeat and protein kinase domain-containing protein 1 (ANKK1, Homo sapiens, UniProt Q8NFD2); cell-free assay, competition with immobilised ligand: 95.7%
Tyrosine-protein kinase ABL1, phosphorylated (ABL1, Homo sapiens, UniProt P00519, Q252H); cell-free assay, competition with immobilised ligand: 94.6%
Tyrosine-protein kinase ABL1, phosphorylated (ABL1, Homo sapiens, UniProt P00519, M351T); cell-free assay, competition with immobilised ligand: 100%
Proto-oncogene tyrosine-protein kinase receptor Ret (RET, Homo sapiens, UniProt P07949); cell-free assay, competition with immobilised ligand: 86.1%
Casein kinase I isoform gamma-1 (CSNK1G1, Homo sapiens, UniProt Q9HCP0); cell-free assay, competition with immobilised ligand: 100%
Cyclin-dependent kinase 13 (CDK13, Homo sapiens, UniProt Q14004); cell-free assay, competition with immobilised ligand: 100%
Calcium/calmodulin-dependent protein kinase type II subunit alpha (CAMK2A, Homo sapiens, UniProt Q9UQM7); cell-free assay, competition with immobilised ligand: 100%
Serine/threonine-protein kinase Chk1 (CHEK1, Homo sapiens, UniProt O14757); cell-free assay, competition with immobilised ligand: 100%
Receptor-type tyrosine-protein kinase FLT3 (FLT3, Homo sapiens, UniProt P36888, R834Q); cell-free assay, competition with immobilised ligand: 80.6%
Membrane-associated tyrosine- and threonine-specific cdc2-inhibitory kinase (PKMYT1, Homo sapiens, UniProt Q99640); cell-free assay, competition with immobilised ligand: 100%

Excerpt of the above (block 3):
CC(C)S(=O)(=O)N[C@H]1Cc2ccc(-c3ccc(F)nc3)cc2C1: 0.216 z-score
CNc1nnc(SCc2ccccc2)s1: 1.02 z-score
CO[C@H]1C[C@@H]2CC[C@@H](C)[C@@](O)(O2)C(=O)C(=O)N2CCCC[C@H]2C(=O)O[C@H]([C@H](C)C[C@@H]2CC[C@@H](OCCO)[C@H](OC)C2)CC(=O)[C@H](C)/C=C(\C)[C@@H](O)[C@@H](OC)C(=O)[C@H](C)C[C@H](C)/C=C/C=C/C=C/1C: 3.73 z-score
CCCN1CCC[C@@H](c2cccc(S(C)(=O)=O)c2)C1: 0.878 z-score
Cc1cc(-c2nc(C(=O)Nc3cn(C4CCOCC4)nc3C(N)=O)co2)ccn1: 5.81 z-score
